Experimental data pooled from the literature.
Each line is one published result; not all experiments were run side by side. Values joined by “and” are separate records of one study, mostly repeats; a detail may differ. ± marks the error that the study gave.
PPARG ligand-binding domain: Peroxisome proliferator-activated receptor gamma, ligand-binding domain (PPARG, Homo sapiens, UniProt P37231)
UniProt P37231, sequence (whole entry, looked up): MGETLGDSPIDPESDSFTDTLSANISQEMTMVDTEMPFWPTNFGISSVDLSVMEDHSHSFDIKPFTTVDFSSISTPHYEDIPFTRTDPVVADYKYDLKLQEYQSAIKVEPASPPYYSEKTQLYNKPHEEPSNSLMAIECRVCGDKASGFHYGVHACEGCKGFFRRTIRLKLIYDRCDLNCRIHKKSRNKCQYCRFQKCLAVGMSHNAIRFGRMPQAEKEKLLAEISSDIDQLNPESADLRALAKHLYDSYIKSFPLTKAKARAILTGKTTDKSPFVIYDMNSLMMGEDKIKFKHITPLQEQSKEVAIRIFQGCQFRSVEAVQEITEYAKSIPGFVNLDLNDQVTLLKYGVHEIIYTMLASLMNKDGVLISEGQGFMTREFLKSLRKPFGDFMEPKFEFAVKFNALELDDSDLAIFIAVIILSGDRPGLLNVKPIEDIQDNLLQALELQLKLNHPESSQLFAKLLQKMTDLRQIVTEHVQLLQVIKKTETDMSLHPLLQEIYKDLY
Melanoma-associated antigen 4 MAGE homology domain: Melanoma-associated antigen 4, MAGE homology domain (Homo sapiens, UniProt P43358)
UniProt P43358, sequence (whole entry, looked up): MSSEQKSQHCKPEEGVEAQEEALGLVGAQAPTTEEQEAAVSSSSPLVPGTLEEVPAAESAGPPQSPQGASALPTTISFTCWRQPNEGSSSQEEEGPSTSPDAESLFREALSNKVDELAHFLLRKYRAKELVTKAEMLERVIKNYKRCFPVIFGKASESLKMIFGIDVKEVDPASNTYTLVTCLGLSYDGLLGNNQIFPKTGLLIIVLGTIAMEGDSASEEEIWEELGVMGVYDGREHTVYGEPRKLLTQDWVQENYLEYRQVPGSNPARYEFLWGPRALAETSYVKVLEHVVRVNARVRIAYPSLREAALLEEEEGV
PPARG: Peroxisome proliferator-activated receptor gamma (PPARG, Homo sapiens, UniProt P37231)
HDAC1: Histone deacetylase 1 (HDAC1, Homo sapiens, UniProt Q13547)
UniProt Q13547, sequence (whole entry, looked up): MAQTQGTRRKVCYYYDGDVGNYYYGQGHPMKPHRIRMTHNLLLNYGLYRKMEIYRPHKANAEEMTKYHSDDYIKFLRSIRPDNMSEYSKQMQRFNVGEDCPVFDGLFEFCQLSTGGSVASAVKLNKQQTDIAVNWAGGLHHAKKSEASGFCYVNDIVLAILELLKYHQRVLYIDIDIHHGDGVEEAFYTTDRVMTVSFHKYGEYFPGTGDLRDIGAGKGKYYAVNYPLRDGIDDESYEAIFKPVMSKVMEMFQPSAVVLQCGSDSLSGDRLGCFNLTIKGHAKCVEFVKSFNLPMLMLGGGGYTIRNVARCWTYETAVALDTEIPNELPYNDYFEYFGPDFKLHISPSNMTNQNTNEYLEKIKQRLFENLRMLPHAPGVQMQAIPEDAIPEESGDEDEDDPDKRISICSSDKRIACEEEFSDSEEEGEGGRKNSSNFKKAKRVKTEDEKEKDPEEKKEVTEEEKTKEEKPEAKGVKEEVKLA
Rhomboid protease AarA: Rhomboid protease AarA (Providencia stuartii, UniProt P46116)
UniProt P46116, sequence (whole entry, looked up): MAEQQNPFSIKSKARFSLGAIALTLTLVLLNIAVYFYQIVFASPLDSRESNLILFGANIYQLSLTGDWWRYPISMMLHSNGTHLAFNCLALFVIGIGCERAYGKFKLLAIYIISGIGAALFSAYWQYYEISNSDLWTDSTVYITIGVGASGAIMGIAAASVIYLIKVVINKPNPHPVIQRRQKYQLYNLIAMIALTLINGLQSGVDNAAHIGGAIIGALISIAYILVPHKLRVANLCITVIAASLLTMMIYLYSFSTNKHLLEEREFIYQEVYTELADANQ
CCR5 Y184K: C-C chemokine receptor type 5 (CCR5, Homo sapiens, UniProt P51681, Y184K)
UniProt P51681, sequence (whole entry, unmodified, looked up): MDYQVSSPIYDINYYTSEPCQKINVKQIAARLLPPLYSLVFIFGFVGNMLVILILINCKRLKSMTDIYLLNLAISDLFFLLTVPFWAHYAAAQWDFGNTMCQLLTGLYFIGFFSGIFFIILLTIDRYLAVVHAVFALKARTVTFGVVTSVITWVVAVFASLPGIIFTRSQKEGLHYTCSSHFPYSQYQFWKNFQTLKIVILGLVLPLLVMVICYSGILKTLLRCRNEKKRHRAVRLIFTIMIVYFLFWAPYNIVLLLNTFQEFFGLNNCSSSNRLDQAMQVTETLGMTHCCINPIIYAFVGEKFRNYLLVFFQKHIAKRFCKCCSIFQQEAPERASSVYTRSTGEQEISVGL
UniProt P32245, sequence (whole entry, looked up): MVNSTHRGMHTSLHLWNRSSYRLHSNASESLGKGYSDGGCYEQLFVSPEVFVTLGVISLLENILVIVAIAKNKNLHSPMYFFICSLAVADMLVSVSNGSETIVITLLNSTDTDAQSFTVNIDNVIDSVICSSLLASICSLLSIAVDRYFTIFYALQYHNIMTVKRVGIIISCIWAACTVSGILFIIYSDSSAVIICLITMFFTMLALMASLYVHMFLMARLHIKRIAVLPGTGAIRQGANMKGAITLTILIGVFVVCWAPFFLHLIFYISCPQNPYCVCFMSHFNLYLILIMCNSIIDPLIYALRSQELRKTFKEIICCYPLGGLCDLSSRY
UniProt P21741, sequence (whole entry, looked up): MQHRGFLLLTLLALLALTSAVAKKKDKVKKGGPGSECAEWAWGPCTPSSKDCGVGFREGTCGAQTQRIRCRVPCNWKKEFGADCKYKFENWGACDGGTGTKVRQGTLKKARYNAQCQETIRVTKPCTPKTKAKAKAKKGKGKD
UniProt Q14524, sequence (whole entry, looked up): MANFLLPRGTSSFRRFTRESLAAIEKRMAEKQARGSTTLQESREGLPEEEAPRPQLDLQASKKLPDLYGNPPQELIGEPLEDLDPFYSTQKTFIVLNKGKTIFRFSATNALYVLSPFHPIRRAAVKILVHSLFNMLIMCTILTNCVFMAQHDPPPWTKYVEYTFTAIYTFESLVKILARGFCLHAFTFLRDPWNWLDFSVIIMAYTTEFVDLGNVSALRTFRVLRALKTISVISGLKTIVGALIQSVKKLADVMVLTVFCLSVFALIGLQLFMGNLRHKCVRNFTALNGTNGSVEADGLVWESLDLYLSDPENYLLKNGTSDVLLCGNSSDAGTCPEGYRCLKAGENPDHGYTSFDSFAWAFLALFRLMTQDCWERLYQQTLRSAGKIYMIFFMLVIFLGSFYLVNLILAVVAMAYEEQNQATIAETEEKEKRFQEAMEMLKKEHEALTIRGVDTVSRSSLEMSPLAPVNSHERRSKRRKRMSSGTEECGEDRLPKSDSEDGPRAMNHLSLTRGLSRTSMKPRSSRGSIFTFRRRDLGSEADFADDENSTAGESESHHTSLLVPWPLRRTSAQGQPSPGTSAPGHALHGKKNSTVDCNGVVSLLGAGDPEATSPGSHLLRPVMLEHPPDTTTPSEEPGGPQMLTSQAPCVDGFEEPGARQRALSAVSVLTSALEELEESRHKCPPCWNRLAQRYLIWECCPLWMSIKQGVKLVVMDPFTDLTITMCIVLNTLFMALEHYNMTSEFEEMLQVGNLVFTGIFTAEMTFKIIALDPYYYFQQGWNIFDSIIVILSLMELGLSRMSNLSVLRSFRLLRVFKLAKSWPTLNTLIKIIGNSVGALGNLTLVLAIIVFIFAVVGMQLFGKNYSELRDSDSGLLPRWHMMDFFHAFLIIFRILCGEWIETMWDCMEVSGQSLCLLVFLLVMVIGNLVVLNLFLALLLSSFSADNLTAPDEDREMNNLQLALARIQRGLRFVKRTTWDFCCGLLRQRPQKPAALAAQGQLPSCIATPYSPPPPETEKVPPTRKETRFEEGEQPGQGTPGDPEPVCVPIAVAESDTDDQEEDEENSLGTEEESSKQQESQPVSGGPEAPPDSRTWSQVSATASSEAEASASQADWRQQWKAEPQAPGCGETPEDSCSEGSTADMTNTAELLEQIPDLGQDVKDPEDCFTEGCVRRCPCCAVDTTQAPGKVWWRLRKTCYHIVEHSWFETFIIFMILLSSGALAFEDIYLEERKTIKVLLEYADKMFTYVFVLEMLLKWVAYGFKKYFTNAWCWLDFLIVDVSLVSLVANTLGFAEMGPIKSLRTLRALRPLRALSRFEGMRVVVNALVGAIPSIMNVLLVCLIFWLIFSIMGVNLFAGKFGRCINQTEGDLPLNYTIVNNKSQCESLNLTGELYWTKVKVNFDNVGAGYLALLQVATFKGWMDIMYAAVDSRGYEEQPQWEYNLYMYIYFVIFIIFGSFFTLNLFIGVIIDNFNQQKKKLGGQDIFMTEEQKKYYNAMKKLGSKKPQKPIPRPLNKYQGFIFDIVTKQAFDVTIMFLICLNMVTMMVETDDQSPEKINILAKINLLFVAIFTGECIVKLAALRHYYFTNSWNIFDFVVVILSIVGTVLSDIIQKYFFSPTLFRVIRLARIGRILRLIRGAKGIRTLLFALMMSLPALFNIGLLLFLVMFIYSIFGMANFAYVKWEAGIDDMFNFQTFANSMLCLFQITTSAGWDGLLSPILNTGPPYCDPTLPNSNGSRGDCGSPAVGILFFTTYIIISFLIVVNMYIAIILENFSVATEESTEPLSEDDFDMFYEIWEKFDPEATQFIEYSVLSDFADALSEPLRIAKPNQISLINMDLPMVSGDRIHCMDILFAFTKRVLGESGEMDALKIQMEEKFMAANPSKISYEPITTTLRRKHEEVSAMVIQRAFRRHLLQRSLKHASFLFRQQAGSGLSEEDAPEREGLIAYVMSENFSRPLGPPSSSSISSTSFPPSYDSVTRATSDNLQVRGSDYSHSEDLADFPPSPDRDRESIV
UniProt Q9NQR1, sequence (whole entry, unmodified, looked up): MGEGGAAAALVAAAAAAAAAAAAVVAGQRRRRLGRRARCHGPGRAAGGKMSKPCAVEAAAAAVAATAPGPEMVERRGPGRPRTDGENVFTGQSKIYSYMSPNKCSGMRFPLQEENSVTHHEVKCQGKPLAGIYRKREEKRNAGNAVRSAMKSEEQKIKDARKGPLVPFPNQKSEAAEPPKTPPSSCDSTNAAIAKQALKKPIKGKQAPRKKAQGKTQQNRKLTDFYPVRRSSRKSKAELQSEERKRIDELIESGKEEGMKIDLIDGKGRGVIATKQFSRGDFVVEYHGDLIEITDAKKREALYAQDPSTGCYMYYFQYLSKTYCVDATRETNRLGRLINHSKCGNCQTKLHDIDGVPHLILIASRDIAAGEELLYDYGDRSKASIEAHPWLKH

| SMILES | target | test | system | conditions | IC50 |
| --- | --- | --- | --- | --- | --- |
| CCC(Oc1cccc(Cc2c(C)n(C)c3cc(C(=O)NC(C)c4cccc(C(C)(C)C)c4)ccc23)c1)C(=O)O (mixture of isomers) | PPARG ligand-binding domain | reporter gene, luciferase reporter | HEK293T, Gal4-PPARγ LBD | – | 141 µM |
| CC[C@H](C)[C@@H]1NC(=O)[C@H](Cc2ccc(O)cc2)NC(=O)CSC[C@@H](C(N)=O)NC(=O)[C@H](Cc2c[nH]cn2)NC(=O)[C@H](Cc2ccc(O)cc2)NC(=O)[C@H](CC(=O)O)NC(=O)[C@H](Cc2ccc(O)cc2)NC(=O)[C@H](CC(C)C)NC(=O)[C@H](CCCNC(=N)N)NC1=O | Melanoma-associated antigen 4 MAGE homology domain | binding, inhibitor, TR-FRET displacement | – | together with: Alexa647-MTP-1 | 0.419 ± 0.055 µM |
| OC[C@H]1O[C@@H](c2ccc(Cl)c(Cc3ccc(O[C@H]4CCOC4)cc3)c2)[C@H](O)[C@@H](O)[C@@H]1O | Sodium/glucose cotransporter 2 (SLC5A2, Homo sapiens, UniProt P31639) | transporter uptake, inhibitor, radiometric | – | – | 0.0176 µM |
| O=C1Nc2c(Br)cccc2/C1=C1/Nc2ccccc2C1=NO | Mitogen-activated protein kinase 1 (MAPK1, Homo sapiens, UniProt P28482) | – | – | – | > 10 µM |
| Cc1c(Cc2ccc(OC(C)(C)C(=O)O)cc2)c2ccc(C(=O)N[C@@H](C)c3ccc(C(C)C)cc3)cc2n1C | PPARG | ligand displacement, TR-FRET | – | – | 0.039 µM |
| COC(=O)CCCCNC(=O)c1ccc(Nc2ncc(F)c(-c3cc(F)c4nc(C)n(C(C)C)c4c3)n2)cc1 | HDAC1 | enzyme activity, inhibitor | – | – | > 1 µM |
| Cn1c(C(=O)NCCN2CCCCCC2)cc2c(=O)n(C)c3ccccc3c21 | Cruzipain (Trypanosoma cruzi, UniProt P25779) | enzyme activity, inhibitor | – | – | 25 µM |
| O=C(C(C(F)(F)F)C(F)(F)F)N1CCOc2ccccc21 | Rhomboid protease AarA | enzyme activity, inhibitor, fluorescence | – | – | 3.8 µM |
| CN1CCCN(c2cnc3c(cc(C(=O)NCc4ccc(Cl)cc4)c(=O)n3CC(=O)N3CC(C)(F)C3)n2)C1=O | Voltage-gated inwardly rectifying potassium channel KCNH2 (KCNH2, Homo sapiens, UniProt Q12809) | ion current, inhibitor, patch clamp | – | – | 9.88 µM |
| Cc1ccc(C[C@H]2CON=C(c3cc(C)nnc3Oc3cccc(Cl)c3F)N2)c(Cl)c1 | serine palmitoyltransferase (Zymoseptoria tritici, UniProt F9X349+F9XMN6) | – | – | – | 0.011 ± 0.002 µM |
| Cc1ccc(N=C2CC(=O)c3sc(C)nc3C2=O)cc1 | N-lysine methyltransferase KMT5A (KMT5A, Homo sapiens, UniProt Q9NQR1, C311S) | enzyme activity, radiometric filter | – | 8 h, 1 µM enzyme C270S variant, together with: 0.75 µM SAM, 1.5 µM H4K20 peptide | 6 µM |
| CCn1c(C)c(Cc2cccc(OC(C)(C)C(=O)O)c2)c2ccc(C(=O)N[C@@H](C)c3cccc(C(C)(C)C)c3)cc21 | PPARG ligand-binding domain | reporter gene, luciferase reporter | HEK293T, Gal4-PPARγ LBD | – | 0.97 µM |
| C#CCSc1nc(Sc2nnnn2-c2ccccc2)c2nnn(Cc3ccccc3Cl)c2n1 | Lysine-specific histone demethylase 1A (KDM1A, Homo sapiens, UniProt O60341) | enzyme activity, inhibitor, fluorescence | – | – | 0.049 µM |
| Cc1c(Cc2cccc(OC(C)(C)C(=O)O)c2)c2ccc(C(=O)N[C@@H](C)c3cccc(C(F)(F)F)c3)cc2n1C | PPARG | ligand displacement, TR-FRET | – | – | 0.001 µM |
| NCCCCCC(=O)N1CCc2cc(NC(=O)c3ccc(CN(C(=O)c4ccc5c(c4)OCC(=O)N5)C4CC4)cc3)ccc2C1 | Histone-lysine N-methyltransferase NSD2 (NSD2, Homo sapiens, UniProt O96028) | ligand displacement, TR-FRET | – | – | ~0.55 µM |
| COCCN(C)C(C)C(=O)NC(Cc1ccc(-c2ccccc2)cc1)B(O)O (centres unmarked) | Proteasome subunit beta type-9 / Proteasome subunit beta type-10 (Homo sapiens, UniProt P28065+P40306) | β1i activity, inhibitor | – | immunoproteasome, together with: Ac-PAL-AMC | > 10 µM |
| CNC(=O)c1ccc(NC(=O)C(C(F)(F)F)C(F)(F)F)cc1 | Rhomboid protease AarA | enzyme activity, inhibitor, fluorescence | – | – | 29 µM |
| COc1ccc(O[C@@H]2O[C@H](COS(=O)(=O)O)[C@H](OS(=O)(=O)O)[C@H](O[C@@H]3O[C@H](C(=O)O)[C@@H](O[C@@H]4O[C@H](COS(=O)(=O)O)[C@H](OS(=O)(=O)O)[C@H](O[C@@H]5O[C@H](C(=O)O)[C@@H](OS(=O)(=O)O)[C@H](O)[C@H]5O)[C@H]4NC(C)=O)[C@H](O)[C@H]3O)[C@H]2NC(C)=O)cc1 | Midkine (Homo sapiens, UniProt P21741) | heparin hexasaccharide binding, fluorescence polarisation competition | – | together with: fluorescein-labelled hexasaccharide probe | 149 µM and 122 µM |
| Cc1c(Cc2ccc(Cl)c(OCC(=O)O)c2)c2ccc(C(=O)NCc3ccc(C(C)(C)C)cc3)cc2n1CC(C)C | PPARG | ligand displacement, TR-FRET | – | – | 0.00079 µM |
| Cc1nn(-c2cccc(N)c2)c(=O)c2cnc(Nc3ccc(N4CCNCC4)cc3)nc12 | MAP kinase-activated protein kinase 3 (MAPKAPK3, Homo sapiens, UniProt Q16644) | enzyme activity, inhibitor | – | – | 0.507 µM |
| C[C@@H](NC(=O)C(C(F)(F)F)C(F)(F)F)c1ccccc1 | Rhomboid protease AarA | enzyme activity, inhibitor, fluorescence | – | – | 23 µM |
| Cc1nnc(-c2ccc(CC(=O)NCCOCCOCCOCCOCC(=O)NC(CCN3C4CCC3CC(n3c(C)nnc3C(C)C)C4)c3ccccc3)cc2)nn1 (centres unmarked) | CCR5 Y184K | calcium mobilization, antagonist | HEK293T cells expressing CCR5 | together with: PSC-RANTES | 0.00638 µM and 0.0117 µM and 0.00545 µM |

| SMILES | target | test | system | conditions | IC50 |
| --- | --- | --- | --- | --- | --- |
| COC(=O)CCCCCCCC(=O)Nc1ccc(Nc2ncc(F)c(-c3cc(F)c4nc(C)n(C(C)C)c4c3)n2)cc1 | HDAC1 | enzyme activity, inhibitor | – | – | > 1 µM |
| O=C(Nc1ccc(Oc2ccccc2)cc1)C(C(F)(F)F)C(F)(F)F | Rhomboid protease AarA | enzyme activity, inhibitor, fluorescence | – | – | 8 µM |
| O=C(CCNC(=O)CNC(=O)CC(c1ccccc1)(c1ccccc1)c1ccccc1)NC[C@@H]1CCCN(Cc2ccc(F)cc2)C1 | Muscarinic acetylcholine receptor M4 (CHRM4, Homo sapiens, UniProt P08173) | ligand displacement, radioligand | – | cell membranes | 21.5 µM |
| Cc1ccc(S(=O)(=O)N/N=C/c2ccsc2B(O)O)cc1 | Plasma kallikrein (KLKB1, Homo sapiens, UniProt P03952) | enzyme activity, inhibitor | – | – | > 100 µM |
| CC(=O)N[C@@H](CCCNC(=N)N)C(=O)N[C@H]1CSSC[C@@H](C(N)=O)NC(=O)[C@H](Cc2c[nH]c3ccccc23)NC(=O)[C@H](CCCNC(=N)N)NC(=O)[C@@H](Cc2ccc3ccccc3c2)NC(=O)[C@H](Cc2c[nH]cn2)NC(=O)[C@@H](C)NC1=O | Melanocortin receptor 4 (MC4R, Homo sapiens, UniProt P32245) | antagonist, split-luciferase cAMP sensor | – | 12 min, together with: 70 nM α-MSH (EC90) | 0.0142 µM and 0.0141 µM |
| CCN(CC)CC(=O)Nc1cccc(-n2cc(-c3ccc4ccc(-c5cn(-c6cccc(NC(=O)CN(CC)CC)c6)nn5)cc4c3)nn2)c1 | Rho-associated protein kinase 2 (ROCK2, Homo sapiens, UniProt O75116) | enzyme activity, inhibitor | – | – | 7.2 µM |
| CC[C@H](C)[C@@H]1NC(=O)[C@H](Cc2ccccc2)NC(=O)CSC[C@@H](C(N)=O)NC(=O)[C@H](CC(N)=O)NC(=O)[C@H](Cc2c[nH]cn2)NC(=O)[C@H](Cc2ccc(O)cc2)NC(=O)[C@H](C)NC(=O)[C@H](Cc2ccc(F)cc2)NC(=O)[C@H](CC(C)C)NC(=O)[C@H](CCCCN)NC1=O | Melanoma-associated antigen 4 MAGE homology domain | binding, inhibitor, TR-FRET displacement | – | together with: Alexa647-MTP-1 | 0.323 ± 0.19 µM |
| COC(=O)CCCCCCNC(=O)Cc1ccc(Nc2ncc(F)c(-c3cc(F)c4nc(C)n(C(C)C)c4c3)n2)cc1 | HDAC1 | enzyme activity, inhibitor | – | – | > 1 µM |
| Cc1ccc(C(=O)Nc2ccnc(S(N)(=O)=O)c2)c(N2CCCC(F)(F)CC2)n1 | Sodium channel protein type 1 subunit alpha (SCN1A, Homo sapiens, UniProt P35498) | ion current | – | – | > 33.8 µM |
| O=C1CC(c2ccccc2)N1S(=O)(=O)c1cccc(-c2ccccc2)c1 (centres unmarked) | Rhomboid protease AarA | enzyme activity, inhibitor, fluorogenic peptide | – | 108 min pre-incubation | 8.4 µM |
| O=C1CCC(N2C(=O)c3ccc(N4CC(C(=O)N5CC(CCN6CCC(CNC(=O)c7cccc(-c8noc(C(F)(F)F)n8)c7)(c7nc(-c8ccccc8)cs7)CC6)C5)C4)cc3C2=O)C(=O)N1 (centres unmarked) | Histone deacetylase 5 (HDAC5, Homo sapiens, UniProt Q9UQL6) | enzyme activity, inhibitor | – | – | 6.14 µM |
| Cc1c(Cc2ccc(Cl)c(OC(C)C(=O)O)c2)c2ccc(C(=O)NC(C)c3ccc(C(C)(C)C)cc3)cc2n1CC1CC1 (centres unmarked) | PPARG | ligand displacement, TR-FRET | – | – | 0.00177 µM |
| COC(=O)C1=CNC=C(C(=O)OC)C1c1ccc(F)c(C(F)(F)F)c1 | Sodium channel protein type 5 subunit alpha (SCN5A, Homo sapiens, UniProt Q14524) | ion current, inhibitor, patch clamp | CHO | pH 7.4 | > 10 µM |
| COC(=O)CCCCCNC(=O)Cc1ccc(Nc2ncc(F)c(-c3cc(F)c4nc(C)n(C(C)C)c4c3)n2)cc1 | HDAC1 | enzyme activity, inhibitor | – | – | > 1 µM |
| CCOc1ccccc1CNC(=O)C(C(F)(F)F)C(F)(F)F | Rhomboid protease AarA | enzyme activity, inhibitor, fluorescence | – | – | 7 µM |
| Cc1nnc(C(C)C)n1C1CC2CCC(C1)N2CCC(NC(=O)COCCOCCOCCOCCNC(=O)Cc1ccc(-c2nncnn2)cc1)c1ccccc1 (centres unmarked) | CCR5 Y184K | calcium mobilization, antagonist | HEK293T cells expressing CCR5 | together with: PSC-RANTES | 0.0176 µM |
| CC(C)(Oc1ccc(Cl)cc1)C(=O)O | Taste receptor type 1 member 3, with T1R1 (TAS1R3, Homo sapiens, UniProt Q7RTX0, Q794N) | – | – | – | 460 µM |
| O=C(Nc1ccc(F)c(Cl)c1)C(C(F)(F)F)C(F)(F)F | Rhomboid protease AarA | enzyme activity, inhibitor, fluorescence | – | – | 7.4 µM |
| Cc1c(Cc2cccc(OC(C)(C)C(=O)O)c2)c2ccc(C(=O)N[C@@H](C)c3cccc(C(C)(C)C)c3)cc2n1C | PPARG | ligand displacement, TR-FRET | – | – | 0.003 µM |
| O=C1CC(c2ccccc2)N1S(=O)(=O)c1cccc(Cl)c1 (centres unmarked) | Rhomboid protease AarA | enzyme activity, inhibitor, fluorescence | – | – | 20 µM |
| Cc1c(Cc2ccc(OC(C)(C)C(=O)O)cc2)c2ccc(C(=O)N[C@@H](C)c3cccc(C(F)(F)F)c3)cc2n1C | PPARG | ligand displacement, TR-FRET | – | – | 0.012 µM |
| Cc1cncn1Cc1ccc(Nc2cccc(F)c2)cc1 | Glutaminyl-peptide cyclotransferase-like protein (Homo sapiens, UniProt Q9NXS2) | – | – | – | 0.89 µM |

For quick reference, copied from above:
| SMILES | target | test | system | conditions | IC50 |
| --- | --- | --- | --- | --- | --- |
| CCC(Oc1cccc(Cc2c(C)n(C)c3cc(C(=O)NC(C)c4cccc(C(C)(C)C)c4)ccc23)c1)C(=O)O (mixture of isomers) | PPARG ligand-binding domain | reporter gene, luciferase reporter | HEK293T, Gal4-PPARγ LBD | – | 141 µM |
| CC[C@H](C)[C@@H]1NC(=O)[C@H](Cc2ccc(O)cc2)NC(=O)CSC[C@@H](C(N)=O)NC(=O)[C@H](Cc2c[nH]cn2)NC(=O)[C@H](Cc2ccc(O)cc2)NC(=O)[C@H](CC(=O)O)NC(=O)[C@H](Cc2ccc(O)cc2)NC(=O)[C@H](CC(C)C)NC(=O)[C@H](CCCNC(=N)N)NC1=O | Melanoma-associated antigen 4 MAGE homology domain | binding, inhibitor, TR-FRET displacement | – | together with: Alexa647-MTP-1 | 0.419 ± 0.055 µM |
| OC[C@H]1O[C@@H](c2ccc(Cl)c(Cc3ccc(O[C@H]4CCOC4)cc3)c2)[C@H](O)[C@@H](O)[C@@H]1O | Sodium/glucose cotransporter 2 (SLC5A2, Homo sapiens, UniProt P31639) | transporter uptake, inhibitor, radiometric | – | – | 0.0176 µM |
| O=C1Nc2c(Br)cccc2/C1=C1/Nc2ccccc2C1=NO | Mitogen-activated protein kinase 1 (MAPK1, Homo sapiens, UniProt P28482) | – | – | – | > 10 µM |
| Cc1c(Cc2ccc(OC(C)(C)C(=O)O)cc2)c2ccc(C(=O)N[C@@H](C)c3ccc(C(C)C)cc3)cc2n1C | PPARG | ligand displacement, TR-FRET | – | – | 0.039 µM |
| COC(=O)CCCCNC(=O)c1ccc(Nc2ncc(F)c(-c3cc(F)c4nc(C)n(C(C)C)c4c3)n2)cc1 | HDAC1 | enzyme activity, inhibitor | – | – | > 1 µM |
